Experimental data from different studies.
Parts stem from different laboratories: compare values within a part only.
UniProt O75460, sequence (whole entry, looked up): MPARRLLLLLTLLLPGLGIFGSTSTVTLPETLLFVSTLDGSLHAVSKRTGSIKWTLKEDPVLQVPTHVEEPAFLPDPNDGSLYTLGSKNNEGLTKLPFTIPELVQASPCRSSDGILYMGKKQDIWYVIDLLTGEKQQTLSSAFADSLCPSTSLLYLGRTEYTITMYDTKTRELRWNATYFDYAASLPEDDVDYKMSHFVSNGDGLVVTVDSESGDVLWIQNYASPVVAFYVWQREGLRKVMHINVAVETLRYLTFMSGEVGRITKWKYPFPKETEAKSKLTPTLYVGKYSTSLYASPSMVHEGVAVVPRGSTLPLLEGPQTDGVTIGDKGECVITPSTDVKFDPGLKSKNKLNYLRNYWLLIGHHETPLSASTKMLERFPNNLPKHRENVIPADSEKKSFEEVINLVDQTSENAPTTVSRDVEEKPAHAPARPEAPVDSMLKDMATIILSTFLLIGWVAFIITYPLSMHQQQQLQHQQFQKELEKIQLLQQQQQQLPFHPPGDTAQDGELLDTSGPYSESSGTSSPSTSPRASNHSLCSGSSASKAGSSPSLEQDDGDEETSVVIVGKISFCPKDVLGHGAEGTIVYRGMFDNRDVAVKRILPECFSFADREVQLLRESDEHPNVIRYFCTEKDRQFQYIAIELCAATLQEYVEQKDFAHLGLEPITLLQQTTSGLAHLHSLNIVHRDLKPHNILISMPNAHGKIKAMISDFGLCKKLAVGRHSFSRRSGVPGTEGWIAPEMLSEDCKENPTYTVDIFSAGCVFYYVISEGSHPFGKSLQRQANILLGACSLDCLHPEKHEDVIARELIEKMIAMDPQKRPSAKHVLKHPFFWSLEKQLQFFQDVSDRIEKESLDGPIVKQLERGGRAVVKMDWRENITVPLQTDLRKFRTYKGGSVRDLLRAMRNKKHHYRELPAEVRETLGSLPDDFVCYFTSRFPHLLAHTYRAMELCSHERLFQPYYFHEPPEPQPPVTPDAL
UniProt P30291, sequence (whole entry, looked up): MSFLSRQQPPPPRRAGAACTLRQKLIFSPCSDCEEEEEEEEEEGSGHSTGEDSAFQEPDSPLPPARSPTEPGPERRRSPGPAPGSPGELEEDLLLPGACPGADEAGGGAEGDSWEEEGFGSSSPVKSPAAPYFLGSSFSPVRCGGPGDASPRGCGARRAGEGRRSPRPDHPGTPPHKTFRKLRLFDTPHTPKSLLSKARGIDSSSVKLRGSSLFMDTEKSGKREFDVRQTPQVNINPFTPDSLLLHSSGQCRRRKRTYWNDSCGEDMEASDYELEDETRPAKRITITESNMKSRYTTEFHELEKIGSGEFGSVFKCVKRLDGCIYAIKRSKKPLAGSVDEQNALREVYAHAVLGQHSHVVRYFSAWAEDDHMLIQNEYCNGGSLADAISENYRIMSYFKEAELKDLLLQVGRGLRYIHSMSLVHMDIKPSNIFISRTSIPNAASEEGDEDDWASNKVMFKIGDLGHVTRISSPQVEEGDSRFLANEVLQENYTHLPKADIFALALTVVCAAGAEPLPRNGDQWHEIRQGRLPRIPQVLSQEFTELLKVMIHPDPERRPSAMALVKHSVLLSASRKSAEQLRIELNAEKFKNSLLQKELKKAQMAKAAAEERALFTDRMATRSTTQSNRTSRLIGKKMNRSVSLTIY
UniProt Q9Y6M4, sequence (whole entry, looked up): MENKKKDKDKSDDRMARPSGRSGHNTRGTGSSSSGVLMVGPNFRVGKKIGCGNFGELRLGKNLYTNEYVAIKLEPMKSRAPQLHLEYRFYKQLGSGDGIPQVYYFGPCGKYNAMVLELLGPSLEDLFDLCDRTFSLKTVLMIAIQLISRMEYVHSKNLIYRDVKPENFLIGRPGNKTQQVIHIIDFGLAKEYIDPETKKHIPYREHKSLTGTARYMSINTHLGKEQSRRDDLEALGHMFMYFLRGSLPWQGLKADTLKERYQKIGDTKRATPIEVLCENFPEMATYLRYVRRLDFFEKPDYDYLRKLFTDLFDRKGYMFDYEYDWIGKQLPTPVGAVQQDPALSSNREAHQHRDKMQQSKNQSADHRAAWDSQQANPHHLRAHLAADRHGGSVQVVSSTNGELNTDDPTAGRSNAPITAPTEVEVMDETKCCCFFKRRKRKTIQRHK
UniProt P10398, sequence (whole entry, looked up): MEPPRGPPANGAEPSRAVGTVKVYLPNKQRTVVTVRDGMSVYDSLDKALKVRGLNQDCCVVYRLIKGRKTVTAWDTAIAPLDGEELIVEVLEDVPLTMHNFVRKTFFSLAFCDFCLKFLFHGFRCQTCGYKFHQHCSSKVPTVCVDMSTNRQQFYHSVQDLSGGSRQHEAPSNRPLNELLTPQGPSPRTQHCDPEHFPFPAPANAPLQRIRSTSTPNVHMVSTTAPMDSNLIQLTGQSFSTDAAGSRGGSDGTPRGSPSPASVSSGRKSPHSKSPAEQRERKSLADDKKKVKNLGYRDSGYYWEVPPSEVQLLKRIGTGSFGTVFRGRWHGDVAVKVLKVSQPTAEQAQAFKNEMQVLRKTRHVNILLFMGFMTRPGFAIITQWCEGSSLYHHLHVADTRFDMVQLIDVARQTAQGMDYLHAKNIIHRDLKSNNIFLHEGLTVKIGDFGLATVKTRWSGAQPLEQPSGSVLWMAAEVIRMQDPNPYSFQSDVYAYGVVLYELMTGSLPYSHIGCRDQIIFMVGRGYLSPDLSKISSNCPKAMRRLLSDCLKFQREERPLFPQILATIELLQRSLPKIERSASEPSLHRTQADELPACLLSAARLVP
UniProt O14843, sequence (whole entry, looked up): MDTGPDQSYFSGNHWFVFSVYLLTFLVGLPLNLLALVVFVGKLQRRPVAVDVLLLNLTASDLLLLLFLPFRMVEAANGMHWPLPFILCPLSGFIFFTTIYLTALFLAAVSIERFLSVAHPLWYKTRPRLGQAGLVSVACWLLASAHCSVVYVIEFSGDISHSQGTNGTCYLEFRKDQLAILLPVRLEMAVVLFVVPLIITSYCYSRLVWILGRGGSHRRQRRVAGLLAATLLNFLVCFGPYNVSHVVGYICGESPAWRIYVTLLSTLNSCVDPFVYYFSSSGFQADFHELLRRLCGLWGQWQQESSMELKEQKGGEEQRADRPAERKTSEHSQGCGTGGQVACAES
UniProt Q86UE8, sequence (whole entry, looked up): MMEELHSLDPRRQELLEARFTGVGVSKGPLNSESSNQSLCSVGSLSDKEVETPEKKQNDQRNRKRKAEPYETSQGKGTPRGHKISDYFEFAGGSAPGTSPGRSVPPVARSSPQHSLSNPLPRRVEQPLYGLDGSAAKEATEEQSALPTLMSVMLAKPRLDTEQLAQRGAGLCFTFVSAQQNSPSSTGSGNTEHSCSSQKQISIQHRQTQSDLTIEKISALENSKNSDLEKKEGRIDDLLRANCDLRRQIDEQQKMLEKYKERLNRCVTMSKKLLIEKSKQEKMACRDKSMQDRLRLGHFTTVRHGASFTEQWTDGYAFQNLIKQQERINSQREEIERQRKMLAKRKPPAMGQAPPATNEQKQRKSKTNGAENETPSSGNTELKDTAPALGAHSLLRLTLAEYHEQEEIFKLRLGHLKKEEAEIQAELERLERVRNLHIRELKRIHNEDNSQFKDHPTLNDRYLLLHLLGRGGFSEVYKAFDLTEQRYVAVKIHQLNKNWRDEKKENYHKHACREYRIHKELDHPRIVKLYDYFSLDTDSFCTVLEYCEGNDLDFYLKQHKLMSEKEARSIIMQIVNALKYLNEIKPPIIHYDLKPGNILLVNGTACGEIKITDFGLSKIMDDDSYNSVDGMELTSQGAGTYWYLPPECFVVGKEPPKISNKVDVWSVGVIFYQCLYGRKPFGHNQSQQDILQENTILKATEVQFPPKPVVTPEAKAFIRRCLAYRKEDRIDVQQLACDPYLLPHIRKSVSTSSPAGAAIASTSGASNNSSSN
UniProt P42685, sequence (whole entry, looked up): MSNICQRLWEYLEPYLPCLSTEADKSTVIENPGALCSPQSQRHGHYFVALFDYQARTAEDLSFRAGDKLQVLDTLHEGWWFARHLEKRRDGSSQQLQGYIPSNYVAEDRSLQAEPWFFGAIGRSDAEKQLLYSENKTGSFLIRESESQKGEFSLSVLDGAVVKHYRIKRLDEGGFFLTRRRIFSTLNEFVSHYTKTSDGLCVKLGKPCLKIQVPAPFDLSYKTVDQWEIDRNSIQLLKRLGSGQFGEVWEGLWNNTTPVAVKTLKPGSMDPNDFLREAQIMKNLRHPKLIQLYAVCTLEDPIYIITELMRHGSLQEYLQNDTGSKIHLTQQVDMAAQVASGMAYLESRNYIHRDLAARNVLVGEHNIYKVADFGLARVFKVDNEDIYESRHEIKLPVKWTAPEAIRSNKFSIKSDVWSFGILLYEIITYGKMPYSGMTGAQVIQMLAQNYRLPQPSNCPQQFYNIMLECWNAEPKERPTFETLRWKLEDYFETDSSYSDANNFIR

Sample 1 — concentration: 1 µM
SMILES: CS(=O)(=O)NCC[C@H](NC(=O)c1cncc2c1cnn2-c1ccc(F)cc1)c1ccnc(S(C)(=O)=O)c1
target	effect on	method	remaining binding [%]
Serine/threonine-protein kinase SBK1 (SBK1, Homo sapiens, UniProt Q52WX2)	cell-free assay	competition with immobilised ligand	96
Epidermal growth factor receptor (EGFR, Homo sapiens, UniProt P00533, del747-750/T751S)	cell-free assay	competition with immobilised ligand	100
Serine/threonine-protein kinase STK11 (STK11, Homo sapiens, UniProt Q15831)	cell-free assay	competition with immobilised ligand	100
Epidermal growth factor receptor (EGFR, Homo sapiens, UniProt P00533, del746-750)	cell-free assay	competition with immobilised ligand	92
Proto-oncogene tyrosine-protein kinase Src (SRC, Homo sapiens, UniProt P12931)	cell-free assay	competition with immobilised ligand	96
Serine/threonine-protein kinase/endoribonuclease IRE1 (ERN1, Homo sapiens, UniProt O75460)	cell-free assay	competition with immobilised ligand	100
Mitogen-activated protein kinase kinase kinase kinase 2 (MAP4K2, Homo sapiens, UniProt Q12851)	cell-free assay	competition with immobilised ligand	91
AP2-associated protein kinase 1 (AAK1, Homo sapiens, UniProt Q2M2I8)	binding		100

Sample 2 — effect on: β-arrestin recruitment; action: agonist; method: PRESTO-Tango; concentration: 10 µM; reference: untreated
SMILES: N=C(N)NC(=O)c1cnn(-c2cccc3ncccc23)c1C1CC1
target	fold over basal
Beta-3 adrenergic receptor (ADRB3, Homo sapiens, UniProt P13945)	1.67
C5a anaphylatoxin chemotactic receptor 1 (C5AR1, Homo sapiens, UniProt P21730)	0.97
Probable G-protein coupled receptor 82 (GPR82, Homo sapiens, UniProt Q96P67)	1.2
Free fatty acid receptor 3 (FFAR3, Homo sapiens, UniProt O14843)	1.03 fold
G-protein coupled receptor 182 (GPR182, Homo sapiens, UniProt O15218)	0.99

Sample 3 — effect on: cell-free assay; concentration: 1 µM
Structure (SMILES): C[C@H]1CC[C@H](n2c3cnccc3c3cnc(Nc4ccc5c(n4)CCN(C(=O)CO)C5)nc32)CC1
target	remaining signal [%]
MAP/microtubule affinity-regulating kinase 3 (MARK3, Homo sapiens, UniProt P27448)	74
Cyclin-dependent kinase 11A (CDK11A, Homo sapiens, UniProt Q9UQ88)	100
Tyrosine-protein kinase ABL1 (ABL1, Homo sapiens, UniProt P00519, T315I)	68
Mast/stem cell growth factor receptor Kit (KIT, Homo sapiens, UniProt P10721, V559D/V654A)	84
RAC-gamma serine/threonine-protein kinase (AKT3, Homo sapiens, UniProt Q9Y243)	100
Dual specificity protein kinase CLK4 (CLK4, Homo sapiens, UniProt Q9HAZ1)	1.4
Serine/threonine-protein kinase tousled-like 2 (TLK2, Homo sapiens, UniProt Q86UE8)	63

Sample 4 — cell line: A-375; concentration: 100 µM; time: 18 h
Structure (SMILES)	viability
Cc1c(OCC(F)(F)F)ccnc1C[S+]([O-])c1nc2ccccc2[nH]1 (centres unmarked)	76.4%
CC1(C)O[C@H]2CC(=O)OC[C@]23[C@H]2CC[C@@]4(C)[C@H](c5ccoc5)OC(=O)[C@H]5O[C@]54[C@]2(C)C(=O)C[C@@H]13	96.9%
Cc1cn([C@@H]2C[C@@H](O)[C@H](CO)O2)c(=O)[nH]c1=O	110%
COc1cccc2c1C(=O)c1c(O)c3c(c(O)c1C2=O)C[C@@](O)(C(C)=O)C[C@@H]3O[C@H]1C[C@H](N)[C@H](O)[C@H](C)O1	22%
Nc1ccc(S(=O)(=O)Nc2nccs2)cc1	92.9%
NC(=O)N1c2ccccc2C=Cc2ccccc21	82.8%

Sample 5 — effect on: enzyme activity; action: inhibitor; concentration: 0.5 µM; reference: control
SMILES: CC(C)(C)c1nc2c3cc[nH]c(=O)c3c3cc(F)ccc3c2[nH]1
target	remaining activity
Ephrin type-A receptor 3 (EPHA3, Homo sapiens, UniProt P29320)	89.2%
Mitogen-activated protein kinase 3 (MAPK3, Homo sapiens, UniProt P27361)	85.7%
Macrophage-stimulating protein receptor (MST1R, Homo sapiens, UniProt Q04912)	103%
MAP kinase-activated protein kinase 2 (MAPKAPK2, Homo sapiens, UniProt P49137)	99.6%
Angiopoietin-1 receptor (TEK, Homo sapiens, UniProt Q02763)	101%
Fibroblast growth factor receptor 1 (FGFR1, Homo sapiens, UniProt P11362)	75.8%
Casein kinase I isoform gamma-2 (CSNK1G2, Homo sapiens, UniProt P78368)	100%
Serine/threonine-protein kinase Nek6 (NEK6, Homo sapiens, UniProt Q9HC98)	82.5%
Glycogen synthase kinase-3 beta (GSK3B, Homo sapiens, UniProt P49841)	95.1%
Tyrosine-protein kinase FRK (FRK, Homo sapiens, UniProt P42685)	104%
Serine/threonine-protein kinase A-Raf (ARAF, Homo sapiens, UniProt P10398)	122%
Tyrosine-protein kinase JAK3 (JAK3, Homo sapiens, UniProt P52333)	0.445%
Tyrosine-protein kinase Mer (MERTK, Homo sapiens, UniProt Q12866)	79.4%
Mitogen-activated protein kinase kinase kinase 5 (MAP3K5, Homo sapiens, UniProt Q99683)	84.4%
Ribosomal protein S6 kinase alpha-2 (RPS6KA2, Homo sapiens, UniProt Q15349)	34.6%
Serine/threonine-protein kinase Nek1 (NEK1, Homo sapiens, UniProt Q96PY6)	49%
Dual specificity mitogen-activated protein kinase kinase 2 (MAP2K2, Homo sapiens, UniProt P36507)	82.1%
Serine/threonine-protein kinase TBK1 (TBK1, Homo sapiens, UniProt Q9UHD2)	24%
Rhodopsin kinase GRK7 (GRK7, Homo sapiens, UniProt Q8WTQ7)	60.5%
Mitogen-activated protein kinase kinase kinase 14 (MAP3K14, Homo sapiens, UniProt Q99558)	71.3%
Fibroblast growth factor receptor 3 (FGFR3, Homo sapiens, UniProt P22607)	93%
Casein kinase I isoform gamma-3 (CSNK1G3, Homo sapiens, UniProt Q9Y6M4)	105%
Wee1-like protein kinase (WEE1, Homo sapiens, UniProt P30291)	87.4%
Serine/threonine-protein kinase ULK2 (ULK2, Homo sapiens, UniProt Q8IYT8)	41.5%
